Assay results pooled from the literature.
Numbered parts are unrelated; each lists some results of a single study. “And” joins repeats or separate records; there may be more than shown.
UniProt P41143, sequence (whole entry, unmodified, looked up): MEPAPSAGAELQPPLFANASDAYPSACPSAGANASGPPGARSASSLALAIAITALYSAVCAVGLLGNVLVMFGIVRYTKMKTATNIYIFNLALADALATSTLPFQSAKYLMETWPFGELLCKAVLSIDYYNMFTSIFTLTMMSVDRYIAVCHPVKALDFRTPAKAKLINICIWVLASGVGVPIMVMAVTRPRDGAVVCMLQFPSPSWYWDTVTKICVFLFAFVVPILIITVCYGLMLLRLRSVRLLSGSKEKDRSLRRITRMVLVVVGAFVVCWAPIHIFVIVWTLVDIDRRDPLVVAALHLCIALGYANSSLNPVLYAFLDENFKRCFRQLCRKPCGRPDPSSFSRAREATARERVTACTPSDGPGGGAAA
UniProt P32300, sequence (whole entry, looked up): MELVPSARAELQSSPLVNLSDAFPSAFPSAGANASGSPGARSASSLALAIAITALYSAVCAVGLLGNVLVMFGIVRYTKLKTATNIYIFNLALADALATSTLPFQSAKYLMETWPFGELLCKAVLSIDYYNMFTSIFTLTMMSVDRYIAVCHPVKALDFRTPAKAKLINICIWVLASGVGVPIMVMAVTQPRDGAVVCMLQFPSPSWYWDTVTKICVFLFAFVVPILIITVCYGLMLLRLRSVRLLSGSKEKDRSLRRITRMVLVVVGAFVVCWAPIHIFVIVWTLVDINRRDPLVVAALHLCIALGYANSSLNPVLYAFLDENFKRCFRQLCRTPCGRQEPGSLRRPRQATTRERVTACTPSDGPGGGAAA

Series 1
SMILES: Cc1ccc(O)c(C)c1-c1cnc2[nH]c(-c3cnc(N4CCC(CN5CCN(c6ccc7c8c(cccc68)C(=O)N7C6CCC(=O)NC6=O)CC5)CC4)nc3)cc2c1C#N (racemic)
Target: Membrane-associated tyrosine- and threonine-specific cdc2-inhibitory kinase (PKMYT1, Homo sapiens, UniProt Q99640)
Read-out: binding
Method: HTRF
Quantity: inhibition
Construct (Q99640 1-499): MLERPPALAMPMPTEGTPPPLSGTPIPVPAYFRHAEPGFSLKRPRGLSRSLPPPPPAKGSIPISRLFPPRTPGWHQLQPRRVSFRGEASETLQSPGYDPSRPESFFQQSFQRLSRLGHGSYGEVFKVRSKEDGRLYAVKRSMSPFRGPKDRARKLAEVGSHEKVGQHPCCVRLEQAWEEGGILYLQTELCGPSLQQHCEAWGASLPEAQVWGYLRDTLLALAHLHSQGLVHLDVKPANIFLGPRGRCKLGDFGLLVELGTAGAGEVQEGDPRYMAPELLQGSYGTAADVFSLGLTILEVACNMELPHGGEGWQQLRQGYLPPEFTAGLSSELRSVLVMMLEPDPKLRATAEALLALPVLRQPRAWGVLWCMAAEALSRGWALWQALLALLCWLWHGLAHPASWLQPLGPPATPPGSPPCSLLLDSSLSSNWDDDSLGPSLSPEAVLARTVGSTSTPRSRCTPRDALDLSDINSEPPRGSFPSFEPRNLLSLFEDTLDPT
111.11 nM: 96.5% and 96.4%
1000 nM: 99.4% and 98.5%
1.37 nM: 6.41% and 4.58%

Series 2
SMILES: Cn1cc(-c2cccc(CN3CCC4(CC3)COc3c4ccc4c3CN([C@H]3CCC(=O)NC3=O)C4=O)c2)cn1
Mode: degrader
Quantity: protein remaining
Ikzf2/Crbn I391V: Ikzf2/Crbn (Mus musculus, UniProt P81183+Q8C7D2, I391V)
UniProt P81183, sequence (whole entry, unmodified, looked up): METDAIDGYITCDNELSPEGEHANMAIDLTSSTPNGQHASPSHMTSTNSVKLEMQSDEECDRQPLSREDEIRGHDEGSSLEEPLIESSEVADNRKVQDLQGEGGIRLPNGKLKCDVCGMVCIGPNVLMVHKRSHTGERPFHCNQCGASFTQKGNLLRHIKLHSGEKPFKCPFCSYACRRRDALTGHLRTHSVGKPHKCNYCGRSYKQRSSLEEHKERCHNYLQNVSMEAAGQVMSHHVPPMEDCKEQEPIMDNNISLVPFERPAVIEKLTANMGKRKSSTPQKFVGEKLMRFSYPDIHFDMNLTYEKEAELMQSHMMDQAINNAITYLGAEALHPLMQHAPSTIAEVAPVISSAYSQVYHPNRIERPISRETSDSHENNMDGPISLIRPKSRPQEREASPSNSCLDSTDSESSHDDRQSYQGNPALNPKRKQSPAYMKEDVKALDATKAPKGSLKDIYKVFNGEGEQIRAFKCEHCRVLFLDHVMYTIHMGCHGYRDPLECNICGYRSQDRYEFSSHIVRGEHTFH
UniProt Q8C7D2, sequence (whole entry, unmodified, looked up): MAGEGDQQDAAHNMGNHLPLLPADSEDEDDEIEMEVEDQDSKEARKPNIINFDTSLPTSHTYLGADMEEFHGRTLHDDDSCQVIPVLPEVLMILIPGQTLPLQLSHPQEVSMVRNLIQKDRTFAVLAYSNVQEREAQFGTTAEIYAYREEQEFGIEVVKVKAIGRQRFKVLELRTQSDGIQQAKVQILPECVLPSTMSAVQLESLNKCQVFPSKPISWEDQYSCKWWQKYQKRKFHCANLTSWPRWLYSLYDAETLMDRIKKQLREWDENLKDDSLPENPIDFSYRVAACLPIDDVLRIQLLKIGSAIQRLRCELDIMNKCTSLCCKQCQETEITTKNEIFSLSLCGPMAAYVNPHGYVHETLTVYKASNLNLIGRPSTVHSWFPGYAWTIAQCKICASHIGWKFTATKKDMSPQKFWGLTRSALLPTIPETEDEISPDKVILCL
CRBN/Zinc finger protein Helios: CRBN/Zinc finger protein Helios (Homo sapiens, UniProt Q96SW2+Q9UKS7)
UniProt Q9UKS7, sequence (whole entry, looked up): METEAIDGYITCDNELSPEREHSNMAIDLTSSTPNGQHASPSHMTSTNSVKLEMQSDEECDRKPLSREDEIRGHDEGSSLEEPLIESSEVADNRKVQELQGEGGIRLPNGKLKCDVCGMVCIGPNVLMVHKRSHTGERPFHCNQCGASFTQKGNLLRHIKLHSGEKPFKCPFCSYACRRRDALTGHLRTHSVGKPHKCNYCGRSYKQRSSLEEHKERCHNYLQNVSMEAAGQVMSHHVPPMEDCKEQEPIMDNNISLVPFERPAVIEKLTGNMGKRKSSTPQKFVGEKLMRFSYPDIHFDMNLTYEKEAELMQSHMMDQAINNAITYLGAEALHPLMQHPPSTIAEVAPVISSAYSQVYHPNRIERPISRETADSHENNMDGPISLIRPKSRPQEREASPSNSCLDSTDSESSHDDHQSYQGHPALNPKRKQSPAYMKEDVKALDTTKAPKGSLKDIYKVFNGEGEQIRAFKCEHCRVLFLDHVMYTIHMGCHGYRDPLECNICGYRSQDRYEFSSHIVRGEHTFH
UniProt Q96SW2, sequence (whole entry, looked up): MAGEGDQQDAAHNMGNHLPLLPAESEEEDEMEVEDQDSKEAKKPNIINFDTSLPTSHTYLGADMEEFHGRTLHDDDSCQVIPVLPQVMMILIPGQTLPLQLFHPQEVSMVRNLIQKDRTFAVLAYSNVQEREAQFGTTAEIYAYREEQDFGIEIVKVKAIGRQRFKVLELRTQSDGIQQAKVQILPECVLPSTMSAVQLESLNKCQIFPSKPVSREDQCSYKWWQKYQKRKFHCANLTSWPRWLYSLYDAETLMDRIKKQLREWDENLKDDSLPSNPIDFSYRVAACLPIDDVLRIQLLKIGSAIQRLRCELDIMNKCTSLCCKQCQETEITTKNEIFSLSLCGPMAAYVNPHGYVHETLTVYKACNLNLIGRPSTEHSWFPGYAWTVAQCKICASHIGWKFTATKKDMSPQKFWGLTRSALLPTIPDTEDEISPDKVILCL
Ikzf2/Crbn I391V; Crbn I391V mouse, thymus; 30 mg/kg, 6 h: 27% and 35% and 37% and 40%
CRBN/Zinc finger protein Helios; HiBiT; HEK293; 37.04 nM, 6 h: 15.5% and 9.2%
CRBN/Zinc finger protein Helios; HiBiT; HEK293; 0.4572 nM: 52.8% and 74.9%
CRBN/Zinc finger protein Helios; HiBiT; HEK293; 12.35 nM: 20% and 15%
CRBN/Zinc finger protein Helios; HiBiT; HEK293; 0.01694 nM, 6 h: 92.7% and 86.6%
CRBN/Zinc finger protein Helios; HiBiT; HEK293; 1000 nM, 6 h: 9.9% and 11.4%
CRBN/Zinc finger protein Helios; HiBiT; HEK293; 333.3 nM, 0.5 h: 65.4% and 74.3%
CRBN/Zinc finger protein Helios; HiBiT; HEK293; 37.04 nM, 3 h: 17.6% and 18.7%
CRBN/Zinc finger protein Helios; HiBiT; HEK293; 0.01694 nM, 1 h: 93.2% and 82.7%
CRBN/Zinc finger protein Helios; HiBiT; HEK293; 0.05081 nM, 6 h: 88.2% and 88.4%
Ikzf2/Crbn I391V; Crbn I391V mouse, spleen; 30 mg/kg, 6 h: 17% and 12% and 16%

Series 3
Structure (SMILES): CCCCC[C@@H]1CC(=O)N[C@@H](C(C)C)C(=O)N[C@H](CCC(=O)O)C(=O)N[C@@H](CCCNC(=N)N)C(=O)NCC(=O)N2CCC[C@H]2C(=O)N[C@@H](CC(C)C)C(=O)N[C@H](CCC(N)=O)C(=O)N[C@@H](CCC(=O)O)C(=O)N[C@H](Cc2ccc(O)cc2)C(=O)N[C@H](Cc2c[nH]c3ccccc23)C(=O)NCCCC(=O)O1
Organism: Staphylococcus aureus
Strain: USA300
Concentration: 2 x MIC
Quantity: viable cells
240 min: 400 CFU/mL and 300 CFU/mL and 600 CFU/mL
60 min: 1500 CFU/mL and 1300 CFU/mL and 1400 CFU/mL
360 min: 400 CFU/mL and 500 CFU/mL and 300 CFU/mL
120 min: 1000 CFU/mL and 800 CFU/mL and 1200 CFU/mL

Series 4
SMILES: N=C(N)NCCCCCCN1CCC23c4c5ccc(O)c4OC2c2nc4ccccc4cc2CC3(O)C1C5 (stereo not shown)
Quantity: EC50
Delta-type opioid receptor, with Gi1 (Oprd1, Mus musculus, UniProt P32300); agonist, cell-based: 8.3 nM
Delta-type opioid receptor, with Gi3 (OPRD1, Homo sapiens, UniProt P41143); human cells: 12.8 nM
Delta-type opioid receptor, with Gi1 (OPRD1, Homo sapiens, UniProt P41143, S135A); G protein activation, agonist: 11 nM
Delta-type opioid receptor, with GoA (OPRD1, Homo sapiens, UniProt P41143); human cells: 10.2 nM
Delta-type opioid receptor, with Gi1 (OPRD1, Homo sapiens, UniProt P41143, S311A); G protein activation, agonist: 1.62 nM
Delta-type opioid receptor, with Gi2 (OPRD1, Homo sapiens, UniProt P41143); human cells: 20.9 nM

Further values, each from its own experiment
FC(F)(F)c1ccc(C2=NOC3(NC(c4ccccc4)=NO3)N2c2ccccc2)cc1 (stereo not shown)  resistance index (Plasmodium falciparum; SYBR Gold; SB1-A6; 72 h; baseline: IC50 SB1-A6 over wild type): 6 fold

Repeated from above (series 4):
Delta-type opioid receptor, with GoA (OPRD1, Homo sapiens, UniProt P41143); human cells: 10.2 nM
Delta-type opioid receptor, with Gi1 (OPRD1, Homo sapiens, UniProt P41143, S311A); G protein activation, agonist: 1.62 nM
Delta-type opioid receptor, with Gi2 (OPRD1, Homo sapiens, UniProt P41143); human cells: 20.9 nM
